{"data": "Measured values collected from several papers", "note": "Numbered parts are unrelated; each lists some results of a single study.", "UniProt O14920, sequence (whole entry, looked up)": "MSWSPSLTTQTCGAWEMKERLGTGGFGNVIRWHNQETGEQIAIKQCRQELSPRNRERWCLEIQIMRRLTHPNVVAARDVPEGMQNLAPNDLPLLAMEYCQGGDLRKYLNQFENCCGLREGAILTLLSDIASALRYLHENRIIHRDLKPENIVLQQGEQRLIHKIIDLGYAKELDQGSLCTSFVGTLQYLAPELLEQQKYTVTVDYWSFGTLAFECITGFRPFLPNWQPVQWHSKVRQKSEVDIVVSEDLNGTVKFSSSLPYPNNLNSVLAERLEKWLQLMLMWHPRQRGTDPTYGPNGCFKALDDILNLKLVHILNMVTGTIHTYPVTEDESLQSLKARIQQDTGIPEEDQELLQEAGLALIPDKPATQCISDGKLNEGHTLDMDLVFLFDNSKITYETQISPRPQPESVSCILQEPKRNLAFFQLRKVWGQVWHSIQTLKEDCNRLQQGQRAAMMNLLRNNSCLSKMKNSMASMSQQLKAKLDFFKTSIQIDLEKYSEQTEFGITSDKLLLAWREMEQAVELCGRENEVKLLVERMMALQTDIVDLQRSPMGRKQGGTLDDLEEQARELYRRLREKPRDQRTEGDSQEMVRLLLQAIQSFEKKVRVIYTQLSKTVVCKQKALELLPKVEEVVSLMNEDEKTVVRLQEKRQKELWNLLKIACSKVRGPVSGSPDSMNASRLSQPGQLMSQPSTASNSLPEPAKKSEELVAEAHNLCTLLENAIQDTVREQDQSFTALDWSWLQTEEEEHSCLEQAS", "UniProt P05771, sequence (whole entry, looked up)": "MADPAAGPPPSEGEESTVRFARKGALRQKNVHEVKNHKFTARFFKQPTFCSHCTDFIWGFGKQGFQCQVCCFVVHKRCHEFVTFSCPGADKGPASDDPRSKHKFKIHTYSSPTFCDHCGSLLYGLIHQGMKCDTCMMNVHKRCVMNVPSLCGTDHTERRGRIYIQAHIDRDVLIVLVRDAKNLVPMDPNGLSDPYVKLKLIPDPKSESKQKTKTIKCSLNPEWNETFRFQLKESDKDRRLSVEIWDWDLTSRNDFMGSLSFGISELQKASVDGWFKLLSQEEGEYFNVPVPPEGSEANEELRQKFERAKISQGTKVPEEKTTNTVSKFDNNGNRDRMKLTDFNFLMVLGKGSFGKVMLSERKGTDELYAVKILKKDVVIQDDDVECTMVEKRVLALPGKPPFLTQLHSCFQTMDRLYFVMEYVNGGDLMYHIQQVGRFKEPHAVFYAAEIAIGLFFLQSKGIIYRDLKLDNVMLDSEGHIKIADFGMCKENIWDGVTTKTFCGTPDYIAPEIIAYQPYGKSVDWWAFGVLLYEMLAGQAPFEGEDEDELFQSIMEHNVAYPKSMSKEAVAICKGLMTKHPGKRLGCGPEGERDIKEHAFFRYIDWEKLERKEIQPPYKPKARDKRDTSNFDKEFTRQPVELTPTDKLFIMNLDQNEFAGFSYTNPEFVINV", "UniProt O96017, sequence (whole entry, looked up)": "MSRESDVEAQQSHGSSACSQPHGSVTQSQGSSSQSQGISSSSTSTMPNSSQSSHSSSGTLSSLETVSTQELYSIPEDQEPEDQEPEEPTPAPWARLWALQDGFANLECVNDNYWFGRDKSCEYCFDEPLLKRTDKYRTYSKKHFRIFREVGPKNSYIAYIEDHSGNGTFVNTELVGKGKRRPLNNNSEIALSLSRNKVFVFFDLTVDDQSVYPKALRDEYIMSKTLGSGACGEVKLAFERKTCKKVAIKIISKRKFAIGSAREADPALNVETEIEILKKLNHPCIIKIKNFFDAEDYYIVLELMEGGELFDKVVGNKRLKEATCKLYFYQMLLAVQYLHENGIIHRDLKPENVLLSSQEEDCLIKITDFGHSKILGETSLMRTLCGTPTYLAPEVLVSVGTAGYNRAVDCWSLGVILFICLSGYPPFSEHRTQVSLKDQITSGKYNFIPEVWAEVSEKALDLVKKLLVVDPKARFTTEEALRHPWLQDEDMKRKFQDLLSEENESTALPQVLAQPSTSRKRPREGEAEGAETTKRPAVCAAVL", "UniProt Q8WU08, sequence (whole entry, looked up)": "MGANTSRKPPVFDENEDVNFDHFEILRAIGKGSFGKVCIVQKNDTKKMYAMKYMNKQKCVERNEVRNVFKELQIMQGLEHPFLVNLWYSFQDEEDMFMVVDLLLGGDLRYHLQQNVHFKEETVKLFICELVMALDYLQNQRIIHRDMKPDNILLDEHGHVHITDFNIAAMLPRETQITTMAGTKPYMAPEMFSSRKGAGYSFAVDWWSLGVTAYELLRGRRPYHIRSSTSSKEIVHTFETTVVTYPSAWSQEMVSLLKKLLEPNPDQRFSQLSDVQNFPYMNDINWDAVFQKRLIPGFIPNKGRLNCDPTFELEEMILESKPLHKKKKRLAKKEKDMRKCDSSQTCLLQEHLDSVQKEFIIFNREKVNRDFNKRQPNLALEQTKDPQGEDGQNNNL", "UniProt Q9M1R4, sequence (whole entry, looked up)": "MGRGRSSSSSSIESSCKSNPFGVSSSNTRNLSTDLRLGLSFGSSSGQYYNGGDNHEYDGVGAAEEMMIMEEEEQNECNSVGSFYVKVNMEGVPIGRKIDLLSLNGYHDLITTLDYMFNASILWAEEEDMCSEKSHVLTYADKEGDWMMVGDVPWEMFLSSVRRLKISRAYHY", "UniProt Q14164, sequence (whole entry, looked up)": "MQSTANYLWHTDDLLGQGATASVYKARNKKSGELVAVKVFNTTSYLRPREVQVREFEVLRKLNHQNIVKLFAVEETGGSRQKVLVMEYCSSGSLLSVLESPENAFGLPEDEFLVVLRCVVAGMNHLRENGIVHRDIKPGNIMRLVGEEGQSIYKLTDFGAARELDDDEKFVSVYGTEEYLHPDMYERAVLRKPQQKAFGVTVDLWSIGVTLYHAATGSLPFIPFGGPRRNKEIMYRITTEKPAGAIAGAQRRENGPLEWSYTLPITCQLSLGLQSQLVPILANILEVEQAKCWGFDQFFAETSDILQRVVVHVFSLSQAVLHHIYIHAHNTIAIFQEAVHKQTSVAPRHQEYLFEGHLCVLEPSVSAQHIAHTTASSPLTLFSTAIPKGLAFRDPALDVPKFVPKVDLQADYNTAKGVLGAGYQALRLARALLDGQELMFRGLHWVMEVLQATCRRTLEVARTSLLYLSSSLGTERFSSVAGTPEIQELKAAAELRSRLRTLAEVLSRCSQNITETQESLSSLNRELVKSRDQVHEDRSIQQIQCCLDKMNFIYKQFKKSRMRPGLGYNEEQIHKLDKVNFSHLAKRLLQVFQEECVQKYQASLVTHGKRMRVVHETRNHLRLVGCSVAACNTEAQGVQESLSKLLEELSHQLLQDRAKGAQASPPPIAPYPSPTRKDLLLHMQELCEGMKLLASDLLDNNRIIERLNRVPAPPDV", "UniProt O94804, sequence (whole entry, looked up)": "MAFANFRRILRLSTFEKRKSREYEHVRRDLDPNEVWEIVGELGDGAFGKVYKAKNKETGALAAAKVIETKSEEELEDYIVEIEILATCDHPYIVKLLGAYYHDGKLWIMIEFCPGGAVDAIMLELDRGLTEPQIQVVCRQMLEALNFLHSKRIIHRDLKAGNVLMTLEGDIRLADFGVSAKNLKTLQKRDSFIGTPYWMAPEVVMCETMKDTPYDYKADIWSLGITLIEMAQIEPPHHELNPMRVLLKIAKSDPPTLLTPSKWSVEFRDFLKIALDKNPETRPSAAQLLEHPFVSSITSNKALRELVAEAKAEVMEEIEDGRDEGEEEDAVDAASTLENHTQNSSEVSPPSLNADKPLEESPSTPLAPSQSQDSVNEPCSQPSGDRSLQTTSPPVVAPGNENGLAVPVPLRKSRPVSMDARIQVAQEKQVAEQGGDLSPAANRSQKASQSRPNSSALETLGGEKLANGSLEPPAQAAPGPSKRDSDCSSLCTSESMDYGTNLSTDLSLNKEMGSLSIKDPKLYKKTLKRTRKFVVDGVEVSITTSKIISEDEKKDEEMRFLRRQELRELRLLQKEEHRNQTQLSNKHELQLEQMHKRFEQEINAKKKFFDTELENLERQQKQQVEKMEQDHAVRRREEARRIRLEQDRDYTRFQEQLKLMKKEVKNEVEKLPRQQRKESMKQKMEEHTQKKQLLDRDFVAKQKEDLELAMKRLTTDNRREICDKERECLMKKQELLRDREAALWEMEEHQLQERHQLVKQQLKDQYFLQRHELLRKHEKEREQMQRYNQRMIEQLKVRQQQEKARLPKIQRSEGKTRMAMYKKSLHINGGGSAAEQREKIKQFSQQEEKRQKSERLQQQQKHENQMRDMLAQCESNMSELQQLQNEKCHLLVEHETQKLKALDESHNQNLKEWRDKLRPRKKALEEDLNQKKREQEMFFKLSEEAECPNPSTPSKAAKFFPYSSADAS", "UniProt P11802, sequence (whole entry, looked up)": "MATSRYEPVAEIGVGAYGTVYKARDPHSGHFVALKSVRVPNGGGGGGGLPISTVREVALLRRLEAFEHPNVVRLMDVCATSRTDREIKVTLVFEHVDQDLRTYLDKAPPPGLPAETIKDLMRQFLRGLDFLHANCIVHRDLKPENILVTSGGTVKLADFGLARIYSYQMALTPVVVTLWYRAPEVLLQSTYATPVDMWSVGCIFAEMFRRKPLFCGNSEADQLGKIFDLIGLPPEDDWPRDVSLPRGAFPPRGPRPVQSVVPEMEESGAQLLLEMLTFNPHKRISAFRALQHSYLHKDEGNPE"}
{"data": "Series 1", "SMILES": "COc1cc(-c2cn(C3CCc4ccccc4N(CC(F)(F)F)C3=O)nn2)ccc1-n1ccc(C)n1 (stereo not shown)", "method": "competition with immobilised ligand", "concentration": "1 µM"}
{"target": "Serine/threonine-protein kinase 32A (STK32A, Homo sapiens, UniProt Q8WU08)", "assay": "binding", "remaining binding [%]": 97}
{"target": "5'-AMP-activated protein kinase catalytic subunit alpha-1 (PRKAA1, Homo sapiens, UniProt Q13131)", "assay": "cell-free assay", "remaining binding [%]": 100}
{"target": "Protein kinase C theta type (PRKCQ, Homo sapiens, UniProt Q04759)", "assay": "cell-free assay", "remaining binding [%]": 94}
{"target": "Serine/threonine-protein kinase PLK4 (PLK4, Homo sapiens, UniProt O00444)", "assay": "cell-free assay", "remaining binding [%]": 73}
{"target": "Inhibitor of nuclear factor kappa-B kinase subunit beta (IKBKB, Homo sapiens, UniProt O14920)", "assay": "cell-free assay", "remaining binding [%]": 99}
{"data": "Series 2", "Sequence": "B1 (IAA7)", "method": "two-hybrid", "baseline": "out of 4 tests", "reading": "higher = firmer interaction", "B1": "IAA7 (Arabidopsis thaliana, UniProt Q38825); chain MIGQLMNLKATELCLGLPGGAEAVESPAKSAVGSKRGFSETVDLMLNLQSNKEGSVDLKNVSAVPKEKTTLKDPSKPPAKAQVVGWPPVRNYRKNMMTQQKTSSGAEEASSEKAGNFGGGAAGAGLVKVSMDGAPYLRKVDLKMYKSYQDLSDALAKMFSSFTMGNYGAQGMIDFMNESKLMNLLNSSEYVPSYEDKDGDWMLVGDVPWEMFVESCKRLRIMKGSEAVGLAPRAMEKYCKNRS"}
{"partner": "ARF22 498-598 (Arabidopsis thaliana, UniProt Q9C8N7)", "positive tests": 3}
{"partner": "ARF11 500-622 (Arabidopsis thaliana, UniProt Q9ZPY6)", "positive tests": 1}
{"partner": "ARF17 (Arabidopsis thaliana, UniProt Q84WU6)", "setting": "weak activation fusion", "positive tests": 0}
{"partner": "IAA30 (Arabidopsis thaliana, UniProt Q9M1R4)", "setting": "weak activation fusion", "positive tests": 2}
{"data": "Series 3", "SMILES": "Cc1ccc(S(=O)(=O)/C=C/C#N)cc1", "observed": "enzyme activity", "action": "inhibitor", "concentration": "0.5 µM", "baseline": "control"}
{"target": "Cyclin-dependent kinase 5, with p25 (CDK5, Homo sapiens, UniProt Q00535)", "remaining activity": "86.8%"}
{"target": "Protein kinase C alpha type (PRKCA, Homo sapiens, UniProt P17252)", "remaining activity": "70.6%"}
{"target": "Death-associated protein kinase 2 (DAPK2, Homo sapiens, UniProt Q9UIK4)", "remaining activity": "100%"}
{"target": "Inhibitor of nuclear factor kappa-B kinase subunit epsilon (IKBKE, Homo sapiens, UniProt Q14164)", "remaining activity": "101%"}
{"target": "Serine/threonine-protein kinase 10 (STK10, Homo sapiens, UniProt O94804)", "remaining activity": "90.6%"}
{"target": "Serine/threonine-protein kinase Nek2 (NEK2, Homo sapiens, UniProt P51955)", "remaining activity": "101%"}
{"target": "Protein kinase C beta type, isoform beta-I (PRKCB, Homo sapiens, UniProt P05771)", "remaining activity": "101%"}
{"target": "Serine/threonine-protein kinase Chk2 (CHEK2, Homo sapiens, UniProt O96017)", "remaining activity": "107%"}
{"target": "TGF-beta receptor type-2 (TGFBR2, Homo sapiens, UniProt P37173)", "remaining activity": "97.9%"}
{"target": "cAMP-dependent protein kinase catalytic subunit alpha (PRKACA, Homo sapiens, UniProt P17612)", "remaining activity": "100%"}
{"target": "Death-associated protein kinase 1 (DAPK1, Homo sapiens, UniProt P53355)", "remaining activity": "100%"}
{"target": "cGMP-dependent protein kinase 1, isoform beta (PRKG1, Homo sapiens, UniProt Q13976)", "remaining activity": "95.8%"}
{"target": "STE20/SPS1-related proline-alanine-rich protein kinase (STK39, Homo sapiens, UniProt Q9UEW8)", "remaining activity": "83.7%"}
{"target": "Tyrosine-protein kinase Lyn, isoform B (LYN, Homo sapiens, UniProt P07948)", "remaining activity": "108%"}
{"target": "Calcium/calmodulin-dependent protein kinase type II subunit delta (CAMK2D, Homo sapiens, UniProt Q13557)", "remaining activity": "102%"}
{"target": "Serine/threonine-protein kinase OSR1 (OXSR1, Homo sapiens, UniProt O95747)", "remaining activity": "103%"}
{"target": "Mitogen-activated protein kinase 9 (MAPK9, Homo sapiens, UniProt P45984)", "remaining activity": "102%"}
{"target": "TGF-beta receptor type-1 (TGFBR1, Homo sapiens, UniProt P36897)", "remaining activity": "103%"}
{"target": "Inhibitor of nuclear factor kappa-B kinase subunit beta (IKBKB, Homo sapiens, UniProt O14920)", "remaining activity": "110%"}
{"target": "Mitogen-activated protein kinase kinase kinase 3 (MAP3K3, Homo sapiens, UniProt Q99759)", "remaining activity": "98.1%"}
{"target": "G protein-coupled receptor kinase 3 (GRK3, Homo sapiens, UniProt P35626)", "remaining activity": "99.1%"}
{"target": "Cyclin-dependent kinase 4, with cyclin D1 (CDK4, Homo sapiens, UniProt P11802)", "remaining activity": "103%"}
{"target": "Serine/threonine-protein kinase STK11 (STK11, Homo sapiens, UniProt Q15831)", "remaining activity": "91.1%"}
{"target": "Calcium/calmodulin-dependent protein kinase kinase 2 (CAMKK2, Homo sapiens, UniProt Q96RR4)", "remaining activity": "102%"}
{"data": "Series 4", "target": "RNA binding protein fox-1 homolog 2, RRM domain, GST-SBP tag (RBFOX2, Homo sapiens, UniProt O43251-10, residues 100-194)", "method": "RNA Bind-n-Seq", "form": "RNA", "sample": "in vitro", "concentration": "365 nM", "notes": "natural RNA segment, single round, ends assumed", "baseline": "no-protein control", "reading": "higher = stronger binding", "Construct (chain)": "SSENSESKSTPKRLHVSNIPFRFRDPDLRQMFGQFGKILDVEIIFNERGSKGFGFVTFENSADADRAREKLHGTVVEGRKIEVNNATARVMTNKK"}
{"Oligonucleotide": "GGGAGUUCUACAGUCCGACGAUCAUUUGUCCUGGAAUUGUCACGGUGCCUUGGUGUCAGCAGCAGUAACUUGGUGCCAAGGCCAAGAGAGAACAGCCCCUGGUCUGCGUCUGUGUCCCCAAGAGAGAGGCUGAUGGAAUUCUCGGGUGCCAA", "RBNS enrichment (R)": 0.663}
{"Oligonucleotide": "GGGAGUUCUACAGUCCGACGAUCUUGACAUCUGCCUUUAAGACUUGGCUGAGUGUCUCAUUAGUUUAUCAUCACAGAUACGCAGUGUUAUGCAUGUGUAUAGAAGUGUGUGCACCAGCAUCAAACAUUGUGUGUGGAAUUCUCGGGUGCCAA", "RBNS enrichment (R)": 0.864}
{"Oligonucleotide": "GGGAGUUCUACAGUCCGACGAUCCCUGGCUUCGAGUUGGAACCCGGACACUUGCCCCUCACUGGUGUGGAUGGAAAUCUGCCUUUCGUGGGACCAAACAGGACUCCUUGGACGAUUAGUUCAGGUUGGGUUUGUGGAAUUCUCGGGUGCCAA", "RBNS enrichment (R)": 0.409}
{"Oligonucleotide": "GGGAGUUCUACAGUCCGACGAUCGCGUUCAUUACUCAGCAGUGUAUAAAGCUAACCUUGAUAAUUUUACCUUUUGUUAAUUAUCUAAAUGGGAAAUGCCAUUAGCUAAACCCCACACACAGCACAGAGAGCAGUGGAAUUCUCGGGUGCCAA", "RBNS enrichment (R)": 0.38}
{"Oligonucleotide": "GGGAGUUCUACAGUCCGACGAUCUAGUAGGCAUUUAGCAAACAUUUAUUGACAAAAAAUAAAACAAAAACUGACAAAUGAAUGUGUAUAACUUUUUCAUGUCUUUUUUACUGUAAAUAACCACUUGACCGGUCUGGAAUUCUCGGGUGCCAA", "RBNS enrichment (R)": 0.385}
{"Oligonucleotide": "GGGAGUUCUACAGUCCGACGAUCUGAACAAGUCUGUUCAUGGCAAACGUGGCUCGAGCCCACCAGACACCAGCGCAGAGCGGGGGCAGCCUGCCCCGCUGUAGCACAGGAGCAAUGGUGUAGCGUCUUCCAAGUGGAAUUCUCGGGUGCCAA", "RBNS enrichment (R)": 0.239}
{"Oligonucleotide": "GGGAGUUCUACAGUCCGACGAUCACAUCUUAAAAUCACUUAUAUACAAUCAUUAAAAGAGUGGUAAUUUUAUAAAUGCUUAUUUAUGUUAUAAAAUGGAGAUCAGAAAAAAAUUCUUUUUGCACUUUGGCCUAUGGAAUUCUCGGGUGCCAA", "RBNS enrichment (R)": 0.534}
{"Oligonucleotide": "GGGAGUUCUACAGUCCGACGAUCGAGUAGGCUCCAAUCAGUCCUCAGCCUGCAGCCUGCUCCAUCCUCAGGGCAGGGACCAAGCGUGCACAUUCUUUCCAUUUCAUAGUUGAUACUUUUAUAUGUACUGCUGCUGGAAUUCUCGGGUGCCAA", "RBNS enrichment (R)": 0.505}
{"data": "Series 5", "target": "RING finger protein unkempt homolog, zinc fingers 1-6, GST-SBP tag (UNK, Homo sapiens, UniProt Q9C0B0, residues 30-357)", "method": "RNA Bind-n-Seq", "form": "RNA", "sample": "in vitro", "concentration": "not given", "notes": "RNA with constant flanks, human and mouse sites, ends assumed", "baseline": "input RNA pool", "reading": "higher = stronger binding", "UniProt Q9C0B0, sequence (30-357, looked up)": "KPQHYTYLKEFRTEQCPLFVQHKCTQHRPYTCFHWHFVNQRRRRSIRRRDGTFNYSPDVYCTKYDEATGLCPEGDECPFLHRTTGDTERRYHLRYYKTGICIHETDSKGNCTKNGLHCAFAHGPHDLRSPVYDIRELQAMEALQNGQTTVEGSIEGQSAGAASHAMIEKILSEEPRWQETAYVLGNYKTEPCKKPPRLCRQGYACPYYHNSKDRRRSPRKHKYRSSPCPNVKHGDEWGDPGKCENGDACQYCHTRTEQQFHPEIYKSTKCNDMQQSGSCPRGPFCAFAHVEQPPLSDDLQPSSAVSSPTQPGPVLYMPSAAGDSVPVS"}
{"Oligonucleotide": "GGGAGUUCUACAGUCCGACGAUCCCUCCUGAGGCCCUGGAUGAUUCUAAUUGUUAGAAAUUCUAAUUGUUAGAAAUCCUUCCUUAUAAUGAAUGAAUUCUGCUUUCCUAUAAUUUCUACCUAUUGGGCCUUGUUCUGUUCUCUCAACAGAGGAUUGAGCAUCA", "bound/input enrichment [ratio]": 0.404}
{"Oligonucleotide": "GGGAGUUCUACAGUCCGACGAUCGUGUGUAGUAACUACCACCCCACCCUCAAUUCAGAAUGGAACGUACCGCUUUUGCUGCUGUAGUACAGAUUUAUGUAAUGUCAACUUUACUGAGAACUUUCCACCCCCUGACACAACACCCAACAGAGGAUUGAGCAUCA", "bound/input enrichment [ratio]": 0.331}
{"Oligonucleotide": "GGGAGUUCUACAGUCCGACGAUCGAUCUAAAAAUGGGAAUGAAGUUUGUCAGUGAUGAACGCUACAAUGAAAGUGAAGAUGGUUUGGUUUCUCAUGUAGAUGGCUCCGUAAUUUCCAGGAGGGAGUGGUAUGUCUAACAGCCACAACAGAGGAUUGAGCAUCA", "bound/input enrichment [ratio]": 0.184}
{"Oligonucleotide": "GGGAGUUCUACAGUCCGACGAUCAUAACUGAAAUCAGAGAUACUGGUGUAAUGGUAAAAUUAUAUCCAAAUAUGACUGCGGUACUGCUUCAUAACACACAACUUGAUCAACGAAAGAUUAAACAUCCUACUGCCCUAGGAUUACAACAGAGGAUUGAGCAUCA", "bound/input enrichment [ratio]": 0.275}
{"Oligonucleotide": "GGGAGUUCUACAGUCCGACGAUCUUCAUUCUACUAUUCCAGAGACUGCAAAACUCCAAGACCACCAAGUUUAUCAAGAGUUUCUUAGUGUUUAUUAACUUAUAUUGCAUUAAGUAUGGGGCACUAGCAUUACAAGAAAUAUUUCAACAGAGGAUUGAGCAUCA", "bound/input enrichment [ratio]": 0.607}
{"Oligonucleotide": "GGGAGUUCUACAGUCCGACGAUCAAUUCAAUGGUUGAGGGUUCAGAACUCAAAAAGGUUCGCUCCAACUCUAGAAUUUAUCAUAGGUACUUUUUACUGGAUGCUGACAUGCAGAGCCUAAGGUGGGAGCCAUCUAAGAAGGAUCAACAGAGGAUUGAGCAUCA", "bound/input enrichment [ratio]": 4.95}
{"Oligonucleotide": "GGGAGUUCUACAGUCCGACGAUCUCUGCCACCCAGCAGAAGAAAAACACCAAACUCUCUAGCAAAACGACUGCUAAGUUAUCCACUAGUGCUAAAAGAAUUCAGAAGGAGCUAGCAGAGAUAACCCUUGAUCCUCCUCCUAACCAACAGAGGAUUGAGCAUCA", "bound/input enrichment [ratio]": 0.657}
{"Oligonucleotide": "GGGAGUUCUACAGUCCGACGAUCGUAUCUAAAUGUUCUGAGGAAAUAAAGAACUACAUUGAAGAACGUUCUGGAGAGGAUCCUCUGGUAAAGGGAAUCCCAGAAGACAAGAAUCCCUUCAAAGAAAAGGGCAGCUGUGUCAUUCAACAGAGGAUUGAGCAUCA", "bound/input enrichment [ratio]": 0.147}
